# Published values pooled from the literature.
# Each line is one published result; not all experiments were run side by side. Numbers after ± are the reported error.
# Sequence of UniProt P35354 (whole entry, looked up): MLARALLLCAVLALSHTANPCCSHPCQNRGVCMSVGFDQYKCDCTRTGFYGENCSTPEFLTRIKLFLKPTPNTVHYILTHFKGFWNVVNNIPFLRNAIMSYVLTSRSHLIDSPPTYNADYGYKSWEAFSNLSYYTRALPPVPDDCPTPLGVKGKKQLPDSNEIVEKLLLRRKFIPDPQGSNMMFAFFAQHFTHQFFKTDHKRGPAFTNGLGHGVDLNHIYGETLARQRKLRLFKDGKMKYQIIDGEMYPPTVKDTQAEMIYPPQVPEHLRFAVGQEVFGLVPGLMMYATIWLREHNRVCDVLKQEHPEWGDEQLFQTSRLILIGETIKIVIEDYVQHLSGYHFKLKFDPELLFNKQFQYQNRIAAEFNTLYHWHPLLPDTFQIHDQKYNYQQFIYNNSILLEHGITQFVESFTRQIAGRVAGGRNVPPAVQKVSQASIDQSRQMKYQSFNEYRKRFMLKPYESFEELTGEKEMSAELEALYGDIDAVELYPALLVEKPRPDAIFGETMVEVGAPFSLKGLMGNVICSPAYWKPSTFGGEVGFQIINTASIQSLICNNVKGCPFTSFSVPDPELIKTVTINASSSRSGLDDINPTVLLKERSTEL
SMILES,target or system,assay,test system,setting,how to read,endpoint,value
CC[C@H](C)[C@H](NC(=O)[C@H](Cc1ccccc1)NC(=O)[C@H](CCC(=O)O)NC(=O)[C@H](CCCNC(=N)N)NC(=O)[C@H](C)NC(=O)[C@H](C)NC(=O)[C@H](CCC(N)=O)NC(=O)[C@H](CCC(=O)O)NC(=O)[C@H](CCC(=O)O)NC(=O)[C@H](CC(C)C)NC(=O)[C@H](Cc1ccc(O)cc1)NC(=O)[C@H](CO)NC(=O)[C@H](CO)NC(=O)[C@@H](NC(=O)[C@H](CC(=O)O)NC(=O)[C@H](CO)NC(=O)[C@@H](NC(=O)[C@H](Cc1ccccc1)NC(=O)[C@@H](NC(=O)CNC(=O)[C@H](CCC(=O)O)NC(=O)[C@H](C)NC(=O)CCc1c[nH]cn1)[C@@H](C)O)[C@@H](C)O)C(C)C)C(=O)N[C@@H](C)C(=O)N[C@@H](Cc1c[nH]c2ccccc12)C(=O)N[C@@H](CC(C)C)C(=O)N[C@H](C(=O)N[C@@H](CCCNC(=N)N)C(=O)NCC(=O)N[C@@H](CCCNC(=N)N)C(=O)N[C@@H](CCCCNC(=O)COCCOCCNC(=O)COCCOCCNC(=O)CC[C@H](NC(=O)CCCCCCCCCCCCCCCCC(=O)O)C(=O)O)C(=O)NCC(=O)NCC(=O)N[C@@H](CO)C(=O)N[C@@H](CCCCNc1c(NCCCCCN(O)C(=O)CCC(=O)NCCCCCN(O)C(=O)CCC(=O)NCCCCCN(O)C(C)=O)c(=O)c1=O)C(=O)O)C(C)C [zirconium-89 labelled],,,"rat, bone marrow","iv, 3 nmol/kg, 4 h, ex vivo",,tissue uptake,0.94 %ID/g
CC[C@H](C)[C@@H]([C@@H](CC(=O)N1CCC[C@H]1[C@H](OC)[C@@H](C)C(=O)N[C@H](C)[C@@H](O)c1ccccc1)OC)N(C)C(=O)[C@@H](NC(=O)[C@H](C(C)C)N(C)C(=O)OCc1ccc(NC(=O)[C@H](CCCCN)NC(=O)[C@@H](NC(=O)CCCCCN2C(=O)CC(SC[C@H](NC(=O)[C@H](CC(=O)O)NC(=O)[C@H](CCCNC(=N)N)NC(=O)[C@H](CC(=O)O)NC(=O)CCCCn3cc(CCCC(=O)Nc4nnc(S(N)(=O)=O)s4)nn3)C(=O)O)C2=O)C(C)C)cc1)C(C)C (stereo partly shown),,"LC-MS, item: intact conjugate",mouse serum,"100 µg/mL, 37 °C",,half-life,8.2 h
C[C@H]1CN(c2n[nH]c3nc(N[C@H]4CC[C@H](NS(=O)(=O)CCC(F)(F)F)CC4)ncc23)CCO1,"Small ribosomal subunit protein uS3 (Homo sapiens, UniProt P23396)","Kinobeads competition, item: RPS3",,"20 µM, unit not given",relative to: vehicle,remaining binding,1.16
CC(C)[C@@H]1NC(=O)[C@H](Cc2ccccc2)NC(=O)[C@@H]2NC(=O)[C@H](Cc3ccccc3)NC(=O)[C@@H]3CCCN3C(=O)CNC(=O)[C@H](Cc3ccccc3)NC(=O)[C@@H]3CNCCCC[C@@H](C(=O)O)NC(=O)[C@@H]4NC(=O)[C@H](CC(N)=O)NC(=O)CNC(=O)[C@H]([C@@H](O)C(=O)O)NC(=O)[C@H](CSC[C@@H](NC(=O)[C@H](CCC(N)=O)NC(=O)[C@H](CCCCNC(=O)c5ccc(NN)nc5)NC(=O)[C@@H](N)CS[C@H]4C)C(=O)N[C@@H](CS[C@H]2C)C(=O)N3)NC1=O [technetium-99m labelled],,,"rat, saline control, spleen","intravenous, 2 h after tracer, tracer 24 h after reperfusion",,tissue uptake,1.1 ± 0.15 %ID/g
COc1cccc2c1C(=O)c1c(O)c3c(c(O)c1C2=O)C[C@@](O)(C(=O)CO)C[C@@H]3O[C@H]1C[C@H](NC(=O)[C@@H]2CCCN2C(=O)CNC(=O)[C@H](CC(C)C)NC(=O)[C@H](C)NC(=O)CP(=O)(O)O)[C@H](O)[C@H](C)O1,,,"healthy mice, plasma","intravenous, 23.6 mg/kg, extrapolated to time zero",,Cmax,207 µM
CC(C)C[C@H](NC(=O)C[C@H](O)[C@H](CC(C)C)NC(=O)[C@H](Cc1c[nH]cn1)NC(=O)CNC(=O)[C@@H](NC(=O)[C@H](C)NC(=O)[C@H](Cc1c[nH]c2ccccc12)NC(=O)[C@H](CCC(N)=O)NC(=O)[C@@H](Cc1ccccc1)NC(=O)CCNC(=O)CCSc1nnc(NCCC(=O)NCCC(=O)NCCCC[C@H](NC(=O)N[C@@H](CCC(=O)O)C(=O)O)C(=O)O)c2c1CCC1C(CC2)C1COC(=O)NCCNC(=O)CC[C@H](C(=O)O)N1CCN(CC(=O)O)CCN(CC(=O)O)CC1)C(C)C)C(N)=O (stereo partly shown) [gallium-68 labelled],,,"athymic NMRI nude mouse, blood","intravenous, dose not given, 2 h, together with: bombesin 480 nmol (GRPR blocking)",,tissue uptake,0.43 %ID/g
O=C(O)C[C@H](NC(=O)[C@H](CC(=O)O)NC(=O)[C@H](CC(=O)O)NC(=O)[C@H](CC(=O)O)NC(=O)[C@H](CC(=O)O)NC(=O)[C@H](CC(=O)O)NC(=O)[C@H](CC(=O)O)NC(=O)[C@H](CC(=O)O)NC(=O)[C@H](CC(=O)O)NC(=O)[C@H](CC(=O)O)NC(=O)[C@H](CC(=O)O)NC(=O)[C@H](CCCCNC(=O)c1ccc(C(=O)NCCOCCOB2BBBBBB3BBBB3B2)cc1)NC(=O)CN1CCN(CC(=O)O)CCN(CC(=O)O)CCN(CC(=O)O)CC1)C(=O)O [gallium-67 labelled],,,"ddY male mice, brain","intravenous, 37 kBq, 3 h",,tissue uptake,0.01 %ID/g
N=C(N)NCCC[C@@H]1NC(=O)[C@H](CCCCNC(=O)c2ccc(CNC34CNCCNCC(N)(CNCCNC3)CNCCNC4)cc2)NC(=O)[C@@H](Cc2ccc(O)cc2)NC(=O)[C@H](CC(=O)O)NC(=O)CNC1=O [copper-64 labelled],,ex vivo biodistribution,"male athymic nude mouse, PC-3 tumour, heart","7.4 MBq, 48 h",,tissue uptake,0.96 ± 0.11 %ID/g
CCCCCCCCCC(=O)N[C@@H](Cc1c[nH]c2ccccc12)C(=O)N[C@H](CC(N)=O)C(=O)N[C@@H](CC(=O)O)C(=O)N[C@@H]1C(=O)NCC(=O)N[C@@H](CCCNC(=O)CCC(=O)N2Cc3ccccc3-c3c(nnn3CCC[C@H](NC(=O)CCCCC[N+]3=C(C=CC4=CC(=CC=C5N(C)c6ccccc6C5(C)C)CCC4)C(C)(C)c4ccccc43)C(=O)NCCCCNC(=O)CCC(=O)N3Cc4ccccc4-c4c(nnn4CCOCCOCCOCCNC(=O)CN4CCN(CC(=O)NCCNC(=O)c5cccc(O)c5O)CCN(CC(=O)NCCNC(=O)c5cccc(O)c5O)CCN(CC(=O)NCCNC(=O)c5cccc(O)c5O)CC4)-c4ccccc43)-c3ccccc32)C(=O)N[C@@H](CC(=O)O)C(=O)N[C@H](C)C(=O)N[C@@H](CC(=O)O)C(=O)NCC(=O)N[C@H](CO)C(=O)N[C@@H]([C@H](C)CC(=O)O)C(=O)N[C@@H](CC(=O)c2ccccc2N)C(=O)O[C@@H]1C,,,human plasma,"1 µM, up to 240 min, pH 7.4, 37 °C",,half-life,> 4 h
C[C@@H](O)[C@H](NC(=O)[C@@H]1CSSC[C@H](NC(=O)[C@@H](Cc2ccccc2)NC(=O)CN2CCN(CC(=O)[O-])CCN(CC(=O)[O-])CCN(CC(=O)[O-])CC2)C(=O)N[C@@H](Cc2ccc(O)cc2)C(=O)N[C@H](Cc2c[nH]c3ccccc23)C(=O)N[C@@H](CCCCN)C(=O)N[C@@H]([C@@H](C)O)C(=O)N1)C(=O)O.[177Lu+3],MEC1 treated with 50 µM zebularine,gamma counter,serum-free RPMI,"60 min, 37 °C",,uptake,1.23%
COc1cc(Nc2ncc(F)c(Nc3ccc4c(n3)NC(=O)C(C)(C)O4)n2)cc(OC)c1OC,"Prostaglandin G/H synthase 2 (PTGS2, Homo sapiens, UniProt P35354)",,,,,IC50,> 10 µM
CC[C@H](C)[C@@H]1NC(=O)[C@@H]2CCCN2C(=O)[C@H](CC(C)C)NC(=O)[C@H](CC(C)C)NC(=O)CNC(=O)[C@@H](NC(=O)[C@@H](NC(=O)[C@H](CC(=O)O)NC(=O)CNC(=O)[C@@H](NC(=O)[C@H](C)NC(=O)CNC(=O)[C@H](CCCCN)NC(=O)[C@H](CC(C)C)NC(=O)[C@H](CC(C)C)NC(=O)[C@H](CCCCN)NC(=O)CNC(=O)[C@@H](NC(=O)[C@@H](N)CC(C)C)C(C)C)C(C)C)C(C)C)CSSC[C@@H](C(=O)O)NC1=O,,"RNA-seq, item: Aoah mRNA","mouse traumatic brain injury, frontal cortex and hippocampus",dose not given,relative to: TBI plus compound vs TBI,log2 fold change,-1.96
C[C@@H](O)[C@@H](CO)NC(=O)[C@@H](CCCNC(=N)N)NC(=O)[C@@H]1CCCN1C(=O)[C@@H]1CSSC[C@H](NC(=O)[C@H](Cc2ccccc2)NC(=O)CN2CCN(CC(=O)O)CCN(CC(=O)O)CCN(CC(=O)O)CC2)C(=O)N[C@@H](Cc2ccc(O)cc2)C(=O)N[C@@H](Cc2ccccc2)C(=O)N[C@@H](CCC(N)=O)C(=O)N[C@@H](CC(N)=O)C(=O)N1 [gallium-68 labelled],,,"Wistar rat, healthy, Parotid gland","intravenous, 8 MBq, 60 min, mean",,tissue uptake,0.17 %ID/g

# A few entries again:
SMILES,target or system,assay,test system,setting,how to read,endpoint,value
CC[C@H](C)[C@@H]1NC(=O)[C@@H]2CCCN2C(=O)[C@H](CC(C)C)NC(=O)[C@H](CC(C)C)NC(=O)CNC(=O)[C@@H](NC(=O)[C@@H](NC(=O)[C@H](CC(=O)O)NC(=O)CNC(=O)[C@@H](NC(=O)[C@H](C)NC(=O)CNC(=O)[C@H](CCCCN)NC(=O)[C@H](CC(C)C)NC(=O)[C@H](CC(C)C)NC(=O)[C@H](CCCCN)NC(=O)CNC(=O)[C@@H](NC(=O)[C@@H](N)CC(C)C)C(C)C)C(C)C)C(C)C)CSSC[C@@H](C(=O)O)NC1=O,,"RNA-seq, item: Aoah mRNA","mouse traumatic brain injury, frontal cortex and hippocampus",dose not given,relative to: TBI plus compound vs TBI,log2 fold change,-1.96
